Published values of several laboratories.
Protocols differ between the studies behind these lines. ± gives the spread as reported.
CASP3: Caspase-3 (CASP3, Homo sapiens, UniProt P42574)
Sequence of UniProt P42574 (whole entry, looked up): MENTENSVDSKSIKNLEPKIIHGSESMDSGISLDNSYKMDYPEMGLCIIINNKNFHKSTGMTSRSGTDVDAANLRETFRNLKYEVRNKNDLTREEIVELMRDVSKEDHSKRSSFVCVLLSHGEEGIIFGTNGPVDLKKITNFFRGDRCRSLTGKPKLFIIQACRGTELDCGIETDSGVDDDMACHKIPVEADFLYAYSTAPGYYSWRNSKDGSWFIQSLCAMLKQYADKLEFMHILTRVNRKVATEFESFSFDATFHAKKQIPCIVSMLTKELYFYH
CHRM5: Muscarinic acetylcholine receptor M5 (CHRM5, Homo sapiens, UniProt P08912)
Sequence of UniProt P08912 (whole entry, looked up): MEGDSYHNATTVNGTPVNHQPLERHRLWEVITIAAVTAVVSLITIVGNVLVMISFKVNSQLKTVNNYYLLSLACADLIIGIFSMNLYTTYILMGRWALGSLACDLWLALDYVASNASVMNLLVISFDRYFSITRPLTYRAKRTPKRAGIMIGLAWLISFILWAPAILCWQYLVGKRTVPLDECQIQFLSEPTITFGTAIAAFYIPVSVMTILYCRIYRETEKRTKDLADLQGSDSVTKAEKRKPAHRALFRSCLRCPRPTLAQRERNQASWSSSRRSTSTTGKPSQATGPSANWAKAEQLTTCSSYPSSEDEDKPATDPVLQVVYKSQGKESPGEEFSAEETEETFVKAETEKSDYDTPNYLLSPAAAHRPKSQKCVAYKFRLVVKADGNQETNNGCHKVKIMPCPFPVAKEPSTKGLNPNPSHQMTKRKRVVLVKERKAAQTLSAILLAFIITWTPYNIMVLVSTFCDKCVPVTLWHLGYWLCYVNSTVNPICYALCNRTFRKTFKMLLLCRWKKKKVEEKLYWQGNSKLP
Sequence of UniProt Q12908 (whole entry, looked up): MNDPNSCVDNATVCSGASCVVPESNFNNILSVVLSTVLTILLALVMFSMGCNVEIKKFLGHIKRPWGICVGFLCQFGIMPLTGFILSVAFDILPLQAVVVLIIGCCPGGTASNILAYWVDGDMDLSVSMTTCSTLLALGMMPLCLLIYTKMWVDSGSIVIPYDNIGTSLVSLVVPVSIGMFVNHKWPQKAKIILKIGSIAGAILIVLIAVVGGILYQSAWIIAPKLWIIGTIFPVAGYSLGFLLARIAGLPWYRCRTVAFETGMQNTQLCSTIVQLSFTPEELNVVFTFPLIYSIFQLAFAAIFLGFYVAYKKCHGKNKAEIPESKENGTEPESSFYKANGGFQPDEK
Sequence of UniProt P18031 (whole entry, looked up): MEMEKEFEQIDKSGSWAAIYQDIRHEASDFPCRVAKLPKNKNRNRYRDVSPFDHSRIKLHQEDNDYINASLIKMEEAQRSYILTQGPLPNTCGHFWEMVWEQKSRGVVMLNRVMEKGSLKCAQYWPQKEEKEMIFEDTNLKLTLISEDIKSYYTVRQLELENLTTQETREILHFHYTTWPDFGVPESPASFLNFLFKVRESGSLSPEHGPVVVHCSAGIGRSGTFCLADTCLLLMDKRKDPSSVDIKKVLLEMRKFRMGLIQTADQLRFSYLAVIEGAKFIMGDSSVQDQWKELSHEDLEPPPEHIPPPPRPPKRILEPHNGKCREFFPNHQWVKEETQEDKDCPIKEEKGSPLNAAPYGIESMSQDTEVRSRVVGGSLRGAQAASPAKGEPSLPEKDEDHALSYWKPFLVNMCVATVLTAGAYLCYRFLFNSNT
Sequence of UniProt Q9Y2K7 (whole entry, looked up): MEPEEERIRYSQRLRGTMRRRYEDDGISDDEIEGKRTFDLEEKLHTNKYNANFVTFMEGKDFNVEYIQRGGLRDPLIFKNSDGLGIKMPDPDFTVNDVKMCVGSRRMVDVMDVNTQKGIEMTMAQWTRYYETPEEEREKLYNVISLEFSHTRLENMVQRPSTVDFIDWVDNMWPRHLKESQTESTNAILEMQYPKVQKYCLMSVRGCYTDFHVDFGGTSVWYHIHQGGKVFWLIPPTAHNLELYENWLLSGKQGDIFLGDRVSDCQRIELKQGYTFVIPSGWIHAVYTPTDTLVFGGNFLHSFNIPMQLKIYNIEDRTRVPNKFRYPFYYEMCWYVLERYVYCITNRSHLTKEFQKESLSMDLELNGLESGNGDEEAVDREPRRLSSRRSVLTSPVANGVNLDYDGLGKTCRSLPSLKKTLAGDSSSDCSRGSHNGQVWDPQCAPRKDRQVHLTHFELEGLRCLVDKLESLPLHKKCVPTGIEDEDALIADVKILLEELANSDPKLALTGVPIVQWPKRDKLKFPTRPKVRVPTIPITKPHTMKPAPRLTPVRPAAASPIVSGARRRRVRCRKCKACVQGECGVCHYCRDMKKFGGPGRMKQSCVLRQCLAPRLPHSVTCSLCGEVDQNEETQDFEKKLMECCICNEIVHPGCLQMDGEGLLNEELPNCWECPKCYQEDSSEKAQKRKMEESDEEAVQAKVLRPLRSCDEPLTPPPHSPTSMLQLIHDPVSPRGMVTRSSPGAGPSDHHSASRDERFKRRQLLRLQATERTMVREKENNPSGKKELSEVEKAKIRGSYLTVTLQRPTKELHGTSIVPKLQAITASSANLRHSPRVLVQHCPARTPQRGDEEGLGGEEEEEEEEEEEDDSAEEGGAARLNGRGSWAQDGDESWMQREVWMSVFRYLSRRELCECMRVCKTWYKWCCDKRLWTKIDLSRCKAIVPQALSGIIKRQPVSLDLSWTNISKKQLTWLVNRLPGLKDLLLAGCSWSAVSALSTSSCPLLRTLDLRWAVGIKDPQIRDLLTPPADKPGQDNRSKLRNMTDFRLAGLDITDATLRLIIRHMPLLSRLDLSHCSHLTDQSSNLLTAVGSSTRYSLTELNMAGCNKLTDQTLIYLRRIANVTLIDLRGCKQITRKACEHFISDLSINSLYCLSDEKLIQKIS
Sequence of UniProt Q16820 (whole entry, looked up): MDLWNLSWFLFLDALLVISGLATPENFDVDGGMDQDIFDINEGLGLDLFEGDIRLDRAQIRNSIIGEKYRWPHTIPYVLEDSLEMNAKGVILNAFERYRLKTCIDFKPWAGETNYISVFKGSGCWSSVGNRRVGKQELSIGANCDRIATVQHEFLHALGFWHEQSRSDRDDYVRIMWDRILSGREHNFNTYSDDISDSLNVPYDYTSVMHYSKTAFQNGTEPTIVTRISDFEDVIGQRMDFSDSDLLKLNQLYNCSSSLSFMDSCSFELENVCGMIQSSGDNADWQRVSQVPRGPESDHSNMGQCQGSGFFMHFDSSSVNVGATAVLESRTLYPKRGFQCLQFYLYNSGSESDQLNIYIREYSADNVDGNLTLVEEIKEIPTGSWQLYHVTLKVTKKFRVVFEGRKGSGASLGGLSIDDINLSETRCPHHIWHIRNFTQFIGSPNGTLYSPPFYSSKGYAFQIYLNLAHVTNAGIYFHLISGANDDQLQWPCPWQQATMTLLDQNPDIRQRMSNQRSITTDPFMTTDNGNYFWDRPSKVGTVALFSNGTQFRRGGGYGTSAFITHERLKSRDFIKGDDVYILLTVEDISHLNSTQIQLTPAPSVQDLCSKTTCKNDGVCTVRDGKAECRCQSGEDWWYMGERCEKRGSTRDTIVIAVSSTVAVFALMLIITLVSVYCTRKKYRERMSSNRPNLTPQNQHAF
Sequence of UniProt P11229 (whole entry, looked up): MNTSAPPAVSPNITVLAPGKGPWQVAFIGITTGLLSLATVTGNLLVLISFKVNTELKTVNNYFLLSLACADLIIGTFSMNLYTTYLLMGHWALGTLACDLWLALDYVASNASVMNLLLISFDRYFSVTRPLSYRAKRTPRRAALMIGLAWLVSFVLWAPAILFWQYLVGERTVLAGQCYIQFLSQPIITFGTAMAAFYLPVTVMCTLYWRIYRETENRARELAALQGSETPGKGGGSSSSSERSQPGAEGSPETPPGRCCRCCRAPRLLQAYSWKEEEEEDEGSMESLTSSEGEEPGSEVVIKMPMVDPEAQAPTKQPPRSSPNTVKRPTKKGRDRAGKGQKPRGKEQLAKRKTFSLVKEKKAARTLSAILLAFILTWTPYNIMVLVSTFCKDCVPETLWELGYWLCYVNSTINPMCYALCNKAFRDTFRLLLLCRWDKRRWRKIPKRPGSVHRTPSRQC
Sequence of UniProt P20309 (whole entry, looked up): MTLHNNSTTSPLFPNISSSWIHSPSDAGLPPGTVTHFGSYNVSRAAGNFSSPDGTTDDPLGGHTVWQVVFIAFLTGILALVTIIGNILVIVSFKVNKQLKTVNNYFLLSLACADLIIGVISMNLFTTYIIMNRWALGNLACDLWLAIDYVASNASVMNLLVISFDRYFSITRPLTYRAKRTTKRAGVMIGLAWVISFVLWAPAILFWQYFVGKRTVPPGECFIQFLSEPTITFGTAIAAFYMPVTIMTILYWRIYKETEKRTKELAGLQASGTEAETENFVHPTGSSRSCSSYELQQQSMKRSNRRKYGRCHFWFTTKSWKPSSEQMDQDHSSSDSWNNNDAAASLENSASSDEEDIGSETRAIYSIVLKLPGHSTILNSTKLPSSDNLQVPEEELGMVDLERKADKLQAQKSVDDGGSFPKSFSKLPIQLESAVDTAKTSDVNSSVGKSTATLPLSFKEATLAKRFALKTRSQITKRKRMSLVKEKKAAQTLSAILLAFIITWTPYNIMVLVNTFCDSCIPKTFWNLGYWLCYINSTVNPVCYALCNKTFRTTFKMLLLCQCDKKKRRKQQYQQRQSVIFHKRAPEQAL
Sequence of UniProt P61169 (whole entry, looked up): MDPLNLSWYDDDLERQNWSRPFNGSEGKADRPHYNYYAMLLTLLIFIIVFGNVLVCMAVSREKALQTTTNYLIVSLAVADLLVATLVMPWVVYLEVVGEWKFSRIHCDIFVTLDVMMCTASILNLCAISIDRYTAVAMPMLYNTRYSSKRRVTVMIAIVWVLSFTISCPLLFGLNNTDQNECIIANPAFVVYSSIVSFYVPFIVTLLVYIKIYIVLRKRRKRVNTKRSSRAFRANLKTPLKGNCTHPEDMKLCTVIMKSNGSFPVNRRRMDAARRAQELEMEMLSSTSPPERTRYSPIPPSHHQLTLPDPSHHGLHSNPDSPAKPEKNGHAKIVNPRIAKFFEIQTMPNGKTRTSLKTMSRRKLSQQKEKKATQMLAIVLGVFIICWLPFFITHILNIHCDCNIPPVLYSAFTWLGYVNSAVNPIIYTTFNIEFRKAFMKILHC

target	test	setting	Ki [µM]	Structure (SMILES)
CASP3	enzyme activity, inhibitor, fluorescence	pH 7	0.1	CC(=O)N[C@@H](C)C(=O)N[C@@H](CC(=O)O)C(=O)N[C@@H](CCCNC(=N)N)C(=O)N[C@H](C(=O)N[C@H](C=O)CC(=O)O)[C@@H](C)O
CHRM3 (Homo sapiens, UniProt P20309)	ligand displacement, radioligand	–	0.0589	NC1CN(CCCCC2CCN(CC(=O)N3c4ccccc4NC(=O)c4ccccc43)CC2)CCN(CC(=O)N2CCC(N3CCC(n4c(=O)[nH]c5ccccc54)CC3)CC2)C1 (stereo not drawn)
GBA3 (Homo sapiens, UniProt Q9H227)	enzyme activity, inhibitor	–	119	CC(C)(C)COCCCCCN1C[C@H](O)[C@@H](O)[C@H](O)[C@@H]1CO
Hypoxanthine-guanine phosphoribosyltransferase (Trypanosoma cruzi, UniProt Q4DGA3)	–	–	0.013 ± 0.002	O=c1[nH]cnc2c(CN[C@H](CO)CCP(=O)(O)O)c[nH]c12
CHRM5	ligand displacement, radioligand	–	0.132	CCC(=O)NC1CN(CCCCC2CCN(CC(=O)N3c4ccccc4NC(=O)c4ccccc43)CC2)CCN(CC(=O)N2CCC(N3CCC(n4c(=O)[nH]c5ccccc54)CC3)CC2)C1 (stereo not drawn)
KDM2A (Homo sapiens, UniProt Q9Y2K7)	ligand displacement, FP	–	> 200	CC1(C)CC(=O)C=C(Sc2nc3cc(Cl)ccc3s2)C1
MEP1B (Homo sapiens, UniProt Q16820)	enzyme activity, inhibitor	–	0.116	O=C(Cc1c(-c2ccccc2)n[nH]c1-c1ccccc1)NO
CHRM1 (Homo sapiens, UniProt P11229)	ligand displacement, radioligand	–	0.0191	CN1CCC=C(c2nsnc2OCCCCCNC(=O)c2ccc(C(=O)NCCCCCOc3nsnc3C3=CCCN(C)C3)cc2)C1
Beta-secretase 1 (BACE1, Homo sapiens, UniProt P56817)	–	–	0.837 ± 0.0251	COc1cccc(CNC[C@@H](O)[C@H](Cc2ccccc2)NC(=O)c2cc(C)cc(C(=O)N(C)[C@H](C)c3ccccc3)c2)c1
PTPN1 (Homo sapiens, UniProt P18031)	enzyme activity, inhibitor	–	1.16	C[C@@H]1O[C@@H](O[C@H]2C(=O)c3c(O)cc(O)cc3O[C@@H]2c2ccc(O)cc2)[C@H](O)[C@H](O)[C@H]1O
CHRM5	ligand displacement, radioligand	–	0.0339	CN1CCC=C(c2nsnc2OCCCN2CCN(CCCCC3CCN(CC(=O)N4c5ccccc5NC(=O)c5ccccc54)CC3)CC2)C1
CASP3	enzyme activity, inhibitor, fluorescence	pH 7	> 100	CC(=O)N[C@H](C(=O)N[C@@H](CCN)C(=O)N[C@H](C=O)CC(=O)O)C(C)C
Drd2 (Rattus norvegicus, UniProt P61169)	cell-free assay, radioligand	–	0.0902	Cc1cc(CN2CCOCC2)ccc1OCCCN1CCN(c2cccc3sccc23)CC1
CHRM5	ligand displacement, radioligand	cell membranes	0.162	CCCCCCOc1ccc(C(=O)OCC[N+]2(C)CC=CCC2)cc1 (stereo not drawn)
SLC10A2 (Homo sapiens, UniProt Q12908)	transporter uptake, inhibitor, radiometric	–	5.79	C[C@H](CCC(=O)O)[C@H]1CC[C@H]2[C@@H]3[C@H](OC(=O)c4ccccc4)C[C@H]4C[C@H](O)CC[C@]4(C)[C@H]3CC[C@]12C

Excerpt of the above:
target	test	setting	Ki [µM]	Structure (SMILES)
GBA3 (Homo sapiens, UniProt Q9H227)	enzyme activity, inhibitor	–	119	CC(C)(C)COCCCCCN1C[C@H](O)[C@@H](O)[C@H](O)[C@@H]1CO
SLC10A2 (Homo sapiens, UniProt Q12908)	transporter uptake, inhibitor, radiometric	–	5.79	C[C@H](CCC(=O)O)[C@H]1CC[C@H]2[C@@H]3[C@H](OC(=O)c4ccccc4)C[C@H]4C[C@H](O)CC[C@]4(C)[C@H]3CC[C@]12C
